# Experimental data from different studies.
# Protocols differ between the studies behind these lines. Numbers after ± are the reported error.
# Sequence of UniProt P41743 (whole entry, looked up): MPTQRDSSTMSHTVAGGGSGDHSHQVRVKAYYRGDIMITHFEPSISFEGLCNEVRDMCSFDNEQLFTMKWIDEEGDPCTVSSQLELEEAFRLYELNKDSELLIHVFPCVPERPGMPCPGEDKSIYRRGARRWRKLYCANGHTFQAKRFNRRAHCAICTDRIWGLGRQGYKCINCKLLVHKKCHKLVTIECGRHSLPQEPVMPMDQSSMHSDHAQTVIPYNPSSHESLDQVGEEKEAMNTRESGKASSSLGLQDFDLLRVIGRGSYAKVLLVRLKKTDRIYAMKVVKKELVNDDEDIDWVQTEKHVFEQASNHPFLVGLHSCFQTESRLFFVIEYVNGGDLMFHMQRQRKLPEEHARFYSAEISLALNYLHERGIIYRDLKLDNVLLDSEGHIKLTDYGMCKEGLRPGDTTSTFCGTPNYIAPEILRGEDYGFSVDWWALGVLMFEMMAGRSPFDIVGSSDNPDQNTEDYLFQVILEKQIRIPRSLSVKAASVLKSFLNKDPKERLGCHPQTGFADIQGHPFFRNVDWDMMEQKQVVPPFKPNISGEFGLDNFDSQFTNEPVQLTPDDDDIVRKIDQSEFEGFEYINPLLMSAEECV
Structure (SMILES),target or system,assay,system,conditions,scale,endpoint,result
CCc1nnc(-c2c(OC)cc(-c3cnc4cc(-c5cnn(C)c5)ccn34)cc2OC)o1,,metabolic stability,"mouse, liver microsomes",,,half-life,> 149 min
COc1ccccc1-c1n[nH]c2nc(NC3CCN(C(=O)Cc4ccc(F)cc4F)CC3)ncc12,,"bead binding, competition bead pull-down, item: LINJ.36.2140",Leishmania donovani extract,10 µM,baseline: vehicle,relative abundance,0.99
C#Cc1c(F)ccc2cc(O)cc(-c3ncc4c(N5CC6CCC(C5)N6C(=O)OC(C)OC(=O)C(C)C)nc(OC[C@@]56CCCN5C[C@H](F)C6)nc4c3F)c12 (stereo partly drawn),,metabolic stability,"mouse, liver microsomes","1 µM, pH 7.4",,half-life,0.68 min
COCC12CCC(OC)C34C5CC6(O)C(OC)C(O)C(O)(C5C6OC(=O)c5ccccc5)C(C(OC)C13)C4N(C)C2 (stereo not drawn),,,"Sprague-Dawley rat, plasma","oral, dose not given, with NADES in PCW extract",,half-life,501 ± 148 min
CC(C)(C)C(=O)OCOP(=O)(OCOC(=O)C(C)(C)C)C1CCCN(O)C1=O (stereo not drawn),NCI-H23,,,,,log GI50,-6.25 log M
COCCCCNC(=O)CC(Cc1ccc(F)cc1)NC(=O)C(Cc1ccc(Cl)cc1Cl)NC(=O)C(N)Cc1ccccc1C#N (stereo not drawn),,metabolic stability,"CD-1 mouse, liver microsomes",1 µM,,half-life,14 min
NC1(CNC(=O)Oc2cccc([C@H]3CCC[C@@]4(C3)OOC3(O4)C4CC5CC(C4)CC3C5)c2)CCCC1 (stereo partly drawn),,metabolic stability,"human, liver microsomes",,,half-life,96.8 min
CN(C)[C@H]1C[C@@]23CC[C@@]4(O2)C(=CC[C@]2(C)[C@@H](c5ccc6ccncc6c5)CC[C@H]24)C=C3[C@@H](O)[C@@H]1O,"MTOR (Homo sapiens, UniProt P42345)",,,0.1 µM,,inhibition,-2.7%
CSCC[C@@H]1NC(=O)[C@H](C(C)C)NC(=O)[C@H](CCCNC(=N)N)NC(=O)[C@@H]2CCCN2C(=O)CNC(=O)[C@@H](NC(=O)CNC(=O)[C@H](CO)NC(=O)CNC(=O)[C@H](CO)NC(=S)Nc2ccc(C[C@H]3CN(CC(=O)O)CCN(CC(=O)O)CCN3CC(=O)O)cc2)CSSC[C@@H](C(N)=O)NC(=O)[C@@H]2CCCN2C(=O)CNC(=O)[C@H](CCC(=O)O)NC(=O)[C@H](CC(=O)O)NC(=O)[C@H](CC(=O)O)NC(=O)CNC(=O)[C@H](CC(C)C)NC(=O)[C@H](Cc2c[nH]cn2)NC(=O)[C@H](CC(C)C)NC(=O)CNC(=O)[C@H](Cc2c[nH]cn2)NC1=O [copper-64 labelled],,dynamic PET,"CD rat, myocardial infarction model, fibrotic infarct myocardium","intravenous, 18.5 MBq, 0 to 5 min",,half-life,2.6 ± 0.4 min
O=C1NC2(CC2)COc2ncc(F)cc2[C@H]2COCCN2c2ccn3ncc1c3n2,,,"Sprague-Dawley rat, male, plasma","oral, 10 mg/kg/day, end of treatment, 4-week repeated-dose toxicity",,prothrombin time,8.9 ± 0.6 s
C#Cc1c(F)ccc2cc(O)cc(-c3ncc4c(N5CC6CCC(C5)N6C(=O)OC(C)OC(=O)[C@@H](N)C(C)C)nc(OC[C@@]56CCCN5C[C@H](F)C6)nc4c3F)c12 (stereo partly drawn),,metabolic stability,"mouse, liver microsomes","1 µM, pH 7.4",,half-life,2.15 min
CCN1CC2(COC)C(O)CC(OC)C34C5CC6(O)C(OC)C(O)C(O)(C5C6OC(=O)c5ccccc5)C(C(OC)C23)C14 (stereo not drawn),,,"Sprague-Dawley rat, plasma","oral, dose not given, with H in PCW extract",,half-life,244 ± 55.5 min
CSCC[C@@H]1NC(=O)[C@H](C(C)C)NC(=O)[C@H](CCCNC(=N)N)NC(=O)CNC(=O)[C@@H]2CCCN2C(=O)[C@@H](NC(=O)CNC(=O)[C@H](CO)NC(=O)CNC(=O)[C@H](CO)NC(=S)Nc2ccc(C[C@H]3CN(CC(=O)O)CCN(CC(=O)O)CCN3CC(=O)O)cc2)CSSC[C@@H](C(N)=O)NC(=O)[C@@H]2CCCN2C(=O)CNC(=O)[C@H](CCC(=O)O)NC(=O)[C@H](CC(=O)O)NC(=O)[C@H](CC(=O)O)NC(=O)CNC(=O)[C@H](CC(C)C)NC(=O)[C@H](Cc2c[nH]cn2)NC(=O)[C@H](CC(C)C)NC(=O)CNC(=O)[C@H](Cc2c[nH]cn2)NC1=O [copper-64 labelled],,dynamic PET,"CD rat, myocardial infarction model, remote myocardium","intravenous, 18.5 MBq, 15 to 60 min",,half-life,24 ± 8.4 min
COc1ccccc1-c1n[nH]c2nc(N[C@H]3CC[C@H](NS(=O)(=O)CC(C)C)CC3)ncc12,,"bead binding, competition bead pull-down, item: LINJ.33.1660",Leishmania donovani extract,10 µM,baseline: vehicle,relative abundance,0.85
CN(C)CCCNC(=O)C[C@H](Cc1ccc(F)cc1)NC(=O)[C@@H](Cc1ccc(Cl)cc1Cl)NC(=O)[C@H](N)Cc1ccccc1C#N,,metabolic stability,"CD-1 mouse, liver microsomes",1 µM,,half-life,41 min
CC(C)[C@H]1NC(=O)C[C@H]2/C=C/CCSSC[C@@H](NC1=O)C(=O)N[C@H](Cc1cccc3ccccc13)C(=O)NCC(=O)O2,"PRKCI (Homo sapiens, UniProt P41743)","enzyme activity, inhibitor",,10 µM,,inhibition,3.4%
N#Cc1ccccc1CC(N)C(=O)NC(Cc1ccc(Cl)cc1Cl)C(=O)NC(CC(=O)NCCCc1cccnc1)Cc1ccc(F)cc1 (stereo not drawn),,metabolic stability,"CD-1 mouse, liver microsomes",1 µM,,half-life,2.5 min
CCN(CC)CCOc1ccc(-c2nnn(Cc3ccc(OC)cc3)c2N)cc1,,metabolic stability,"mouse, plasma",,,half-life,> 373 min

# Some of these lines once more:
Structure (SMILES),target or system,assay,system,conditions,scale,endpoint,result
COc1ccccc1-c1n[nH]c2nc(N[C@H]3CC[C@H](NS(=O)(=O)CC(C)C)CC3)ncc12,,"bead binding, competition bead pull-down, item: LINJ.33.1660",Leishmania donovani extract,10 µM,baseline: vehicle,relative abundance,0.85
O=C1NC2(CC2)COc2ncc(F)cc2[C@H]2COCCN2c2ccn3ncc1c3n2,,,"Sprague-Dawley rat, male, plasma","oral, 10 mg/kg/day, end of treatment, 4-week repeated-dose toxicity",,prothrombin time,8.9 ± 0.6 s
